Results collected from several papers.
Numbered parts are unrelated; each lists some results of a single study. Positions count from the first letter of the parent shown.

Series 1
Target: Prothrombin, mature alpha-thrombin (F2, Homo sapiens, UniProt P00734)
Technique: aptamer microarray, sandwich
Form: DNA with 2'F-ANA
Sample: in vitro
Concentration: 200 nM
Setting: whole 15-mer aptamer, many near background
Together with: Cy3 exosite-II aptamer, 400 nM
Reading: higher = stronger binding
Sequence: GGTTGGTGTGGTTGG
For `2'F-ANA at 1 2 3 6 7 8 11 12 14 15`, “mean fluorescence intensity” read 89.9 a.u.
`2'F-ANA at 1 4 6 9 10 12 14` — result for “mean fluorescence intensity”: 47.8 a.u.
For `2'F-ANA at 2 4 6 7 8 11 12 13 14`, “mean fluorescence intensity” read 115 a.u.
`2'F-ANA at 1 3 5 7 8 10 15` — result for “mean fluorescence intensity”: 47.5 a.u.
Under “mean fluorescence intensity”, `2'F-ANA at 1 2 4 8 10` is recorded as 57 a.u.
For `2'F-ANA at 3 4 9 10 12 14`, “mean fluorescence intensity” read 206 a.u.
`2'F-ANA at 5 7 8 13 14`: “mean fluorescence intensity” 43.2 a.u.
`2'F-ANA at 4 6 9 11 15`: “mean fluorescence intensity” 195 a.u.
`2'F-ANA at 4 6 8 9 10 13`: “mean fluorescence intensity” 93.2 a.u.
Under “mean fluorescence intensity”, `2'F-ANA at 1 4 6 7 9 10 11 12 13 14` is recorded as 46.3 a.u.
For `2'F-ANA at 1 2 3 7 8 11 12 14`, “mean fluorescence intensity” read 101 a.u.
Under “mean fluorescence intensity”, `2'F-ANA at 1 4 7 10 11 14 15` is recorded as 47.4 a.u.
`2'F-ANA at 1 3 4 5 8 9 11 12 14 15` — result for “mean fluorescence intensity”: 60.1 a.u.
For `2'F-ANA at 2 5 6 7 8 9 10 11 12 13 14 15`, “mean fluorescence intensity” read 53.9 a.u.
`2'F-ANA at 1 2 4 5 6 7 8 9 10 11 14` — result for “mean fluorescence intensity”: 54.6 a.u.
Under “mean fluorescence intensity”, `2'F-ANA at 3 4 7 8 12 14` is recorded as 526 a.u.
`2'F-ANA at 1 2 3 4 5 6 7 12 13 15` — result for “mean fluorescence intensity”: 76.6 a.u.
For `2'F-ANA at 1 2 3 4 5 6 9 12 14 15`, “mean fluorescence intensity” read 53.1 a.u.
`2'F-ANA at 1 2 6 7 8 9 11 13`: “mean fluorescence intensity” 136 a.u.
Under “mean fluorescence intensity”, `2'F-ANA at 1 4 5 6 7 12 14` is recorded as 44 a.u.
`2'F-ANA at 1 2 3 6 15`: “mean fluorescence intensity” 232 a.u.
Under “mean fluorescence intensity”, `2'F-ANA at 1 7 9 10 13 14` is recorded as 46.3 a.u.
For `2'F-ANA at 2 3 5 8 9 14`, “mean fluorescence intensity” read 55.1 a.u.
For `2'F-ANA at 1 2 3 4 5 13 14 15`, “mean fluorescence intensity” read 43.6 a.u.
Under “mean fluorescence intensity”, `2'F-ANA at 1 2 6 10 11 12 13` is recorded as 59.1 a.u.

Series 2
Target: RNA binding protein fox-1 homolog 2, RRM domain, GST-SBP tag (RBFOX2, Homo sapiens, UniProt O43251-10, residues 100-194)
Technique: RNA Bind-n-Seq
Form: RNA
Sample: in vitro
Concentration: 365 nM
Setting: natural RNA segment, single round, ends assumed
Baseline: no-protein control
Reading: higher = stronger binding
Construct (chain): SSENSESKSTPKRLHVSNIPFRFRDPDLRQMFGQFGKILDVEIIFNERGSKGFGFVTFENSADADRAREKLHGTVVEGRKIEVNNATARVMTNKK
For `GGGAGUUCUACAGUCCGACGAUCCCUUCCCUGCCAGCAGUCUUCUCCAUACACGACAGGGCGUGUUCUCCACCAGGCCUGUAACAUCUUGUUGAGAUCAUUUCUAUGGCCCAAUACUUGUCGCUCUGGGGUUUUGGAAUUCUCGGGUGCCAA`, “RBNS enrichment (R)” read 0.341.
For `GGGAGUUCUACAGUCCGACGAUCAGACUAAGGGAUGAGGACAUCUCUUUAUAAAAGGCCCCUAAGUAAUGGAUAAACAGAAACACUUAGAGGUGAGAAGGUCUGUCUUCAAGAUCCAAGGUAAGAUUGCCUUCUGGAAUUCUCGGGUGCCAA`, “RBNS enrichment (R)” read 0.294.
Under “RBNS enrichment (R)”, `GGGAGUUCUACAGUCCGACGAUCUACCUCUCGGGACAACUUUUAAAAGCUAUUUUUACCAAGUAUUUUGUAAAUGCUAAUUUUUUAGGACUCUAUUAGUCAGCAUAAAAUCUAUAUGAAGAAGAUGGACAUUUUGGAAUUCUCGGGUGCCAA` is recorded as 0.406.
`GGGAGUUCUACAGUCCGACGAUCUGGAAUGACCAGAGAGCGAGCUGCCUUACCUCCCUACAUUCCAAGUCAGGACCAGCACAGGACUAACAACUCUGGUCUUAACAGCCUCCUCCUUCCCAUGUCCCUUUCACUGGAAUUCUCGGGUGCCAA` — result for “RBNS enrichment (R)”: 0.271.
`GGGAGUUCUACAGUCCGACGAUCUUUCUCCCUCACAUCAGGAGGUAGAUAGCUCUGAAAUGACAGCGCCACAGCCAUAGUGACUGCAUGAGCCAUCUGAACCUGCAGUCCACCCUCCCUGGAACCACACCAGAUGGAAUUCUCGGGUGCCAA`: “RBNS enrichment (R)” 0.262.
Under “RBNS enrichment (R)”, `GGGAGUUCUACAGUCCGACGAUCUCUAAAGAGAGUGAGCAUGAGCUCACUCCAUCACUCGAUGAGAUAAUAUGAGAUUUCUACUUCGGAGAGGCCAAGUCUAAUGAAGAGAAAAAAAGGAAAAGAAGUUGCAAUGGAAUUCUCGGGUGCCAA` is recorded as 0.453.
`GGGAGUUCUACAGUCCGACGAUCAUUAGGAUUUUCUGUUUUAUAGUAAAUAGUUGGUAUUUGGUAGUCCACAAUUAAAGUCAUUGCAUUAAUUUUACAAAUUAUAGAUUUAGAAAUGAUUCUUAAGUUAUUGGUGGAAUUCUCGGGUGCCAA` — result for “RBNS enrichment (R)”: 0.569.
`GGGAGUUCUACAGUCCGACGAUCCGAGUGGGGCGCGUUUGUUCCUCACCCACGCGCGUGGGGAUCCCCUCGCCACAGGGAAGCACAAGAACCCCCUCCAUCCCGGAGGAUGCAGGACACGAAGCCCCGGGGUGUGGAAUUCUCGGGUGCCAA` — result for “RBNS enrichment (R)”: 0.273.
`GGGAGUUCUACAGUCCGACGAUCCAGAGCUAAGACAGGUUGCACGUCACUCUUCUGUUGUGGGUGGUGAUUGUGUCCAAUAUGGUGUCUCGCUUGUGUCCUUAUUGGUCCCUUACCCUUUCUGUGUCCAUUGCUGGAAUUCUCGGGUGCCAA` — result for “RBNS enrichment (R)”: 12.2.
`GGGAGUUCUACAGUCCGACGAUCCAGGUAGUAGAGCAGCAGCUUCGUGCUCUCAGCGGUGGCUGGCUGGCAUUUUUCUCUAGCGUUGUGGUGCCACCUUCCCUUCUUGUCCCAAGGUUAUAAGGCCUUGUCUUUGGAAUUCUCGGGUGCCAA` — result for “RBNS enrichment (R)”: 0.371.
`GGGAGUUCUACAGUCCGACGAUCGCUUAGAAUUAAAUAUCACUUUCUUAUGAACAACAUAACUUCUUCAGAUUGUGUAUAUGAAAACAUUAGCAAGUCUUGUUUUUUCUAUGAAGCAAACACAAUUGGUGACAUGGAAUUCUCGGGUGCCAA` — result for “RBNS enrichment (R)”: 0.315.
Under “RBNS enrichment (R)”, `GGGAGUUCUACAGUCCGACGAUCGUACAGUCCUGGGGGUAAGGGGAUGACAUGCCCAGGUGUCAGCUCAAAGGAUCUCUGCAUCAUCUUGAGGUGGGAGGCAGGGAAAGGAGCGCCAAUGAGGUUCCCUGCAAUGGAAUUCUCGGGUGCCAA` is recorded as 0.937.

Series 3
Target: ABI1, truncated, D143A, DHFR fusion (Arabidopsis thaliana)
Technique: DHFR PCA, deep sequencing
Sample: yeast
Setting: methotrexate growth selection, single substitutions
Together with: (+)-ABA 0.11 µM
Baseline: wild-type fitted maximum
Reading: higher = stronger binding
Parent: PYL1, truncated, DHFR fusion (Arabidopsis thaliana); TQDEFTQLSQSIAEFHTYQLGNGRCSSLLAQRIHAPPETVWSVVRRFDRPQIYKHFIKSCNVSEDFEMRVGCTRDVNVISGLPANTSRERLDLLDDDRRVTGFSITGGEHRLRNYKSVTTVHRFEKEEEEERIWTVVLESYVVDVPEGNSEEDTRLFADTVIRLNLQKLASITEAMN; partner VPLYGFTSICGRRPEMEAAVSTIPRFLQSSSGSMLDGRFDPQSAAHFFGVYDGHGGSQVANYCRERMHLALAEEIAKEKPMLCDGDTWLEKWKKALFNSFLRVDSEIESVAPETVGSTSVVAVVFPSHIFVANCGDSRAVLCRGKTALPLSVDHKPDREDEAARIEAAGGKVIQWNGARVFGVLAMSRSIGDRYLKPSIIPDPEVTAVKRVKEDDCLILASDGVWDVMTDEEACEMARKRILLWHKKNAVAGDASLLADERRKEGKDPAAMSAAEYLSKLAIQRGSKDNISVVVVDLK
Under “relative binding score”, `T101M` is recorded as 65.4%.
Under “relative binding score”, `L94A` is recorded as -13.1%.
`L166A`: “relative binding score” 10.1%.
Under “relative binding score”, `G108M` is recorded as 4.56%.
Under “relative binding score”, `T173R` is recorded as 2.4%.
`E109P`: “relative binding score” -4.61%.
For `A175V`, “relative binding score” read 15.7%.
`V62L` — result for “relative binding score”: 22.9%.
`D65S` — result for “relative binding score”: 16.8%.
`L94W`: “relative binding score” 5.48%.
`Q167T` — result for “relative binding score”: 16.5%.
For `L8S`, “relative binding score” read -0.0443%.
For `V121E`, “relative binding score” read -8.55%.
Under “relative binding score”, `S104E` is recorded as -10.2%.
Under “relative binding score”, `D153N` is recorded as -0.586%.
Under “relative binding score”, `L28T` is recorded as 5.6%.
For `D48I`, “relative binding score” read -2.71%.
`Q10W` — result for “relative binding score”: 4.71%.
Under “relative binding score”, `L20R` is recorded as 32.2%.
Under “relative binding score”, `Q19V` is recorded as 24.3%.
`T120L` — result for “relative binding score”: -6.4%.
Under “relative binding score”, `K126W` is recorded as 7.68%.
`T17I` — result for “relative binding score”: -9.05%.
`E64M`: “relative binding score” 10.4%.
`E129M` — result for “relative binding score”: 21.4%.

Series 4
Target: CCNE2, cyclin fold, Cln2 fusion (human)
Technique: yeast growth competition, sequencing
Sample: yeast
Setting: strong parent motif
Baseline: not given
Reading: higher = stronger binding
Parent: INSM1 docking peptide (human); PKAIRKLHFEDEV; partner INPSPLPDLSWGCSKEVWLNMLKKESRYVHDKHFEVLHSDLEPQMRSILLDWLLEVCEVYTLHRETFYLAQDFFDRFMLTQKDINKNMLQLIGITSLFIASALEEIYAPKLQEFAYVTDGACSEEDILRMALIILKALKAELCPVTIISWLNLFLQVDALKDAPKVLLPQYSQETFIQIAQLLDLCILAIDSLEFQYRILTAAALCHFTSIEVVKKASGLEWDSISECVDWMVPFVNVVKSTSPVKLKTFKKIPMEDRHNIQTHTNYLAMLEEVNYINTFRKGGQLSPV
`PDAIRKLHFEDEV [K2D]` — result for “normalised enrichment score”: 0.759.
For `PKAIRKLHYEDEV [F9Y]`, “normalised enrichment score” read 0.546.
`PKAIRKLHFEDWV [E12W]`: “normalised enrichment score” 1.89.
`PKAIRKLAFEDEV [H8A]`: “normalised enrichment score” 0.994.
`PKAIRFLHFEDEV [K6F]`: “normalised enrichment score” 0.723.
`PKAIRKLHFYDEV [E10Y]`: “normalised enrichment score” 0.884.
Under “normalised enrichment score”, `PKAIRKLHFEDSV [E12S]` is recorded as 2.35.
`PKAIRKLHFEKEV [D11K]` — result for “normalised enrichment score”: 1.95.
Under “normalised enrichment score”, `PKAIRKLHFEDAV [E12A]` is recorded as 1.86.
For `PKAIRTLHFEDEV [K6T]`, “normalised enrichment score” read 0.638.
`PKAIRDLHFEDEV [K6D]`: “normalised enrichment score” 0.0497.
For `PKAIRKNHFEDEV [L7N]`, “normalised enrichment score” read -0.218.
`PKIIRKLHFEDEV [A3I]` — result for “normalised enrichment score”: 0.727.
For `PKAIRKLHFDDEV [E10D]`, “normalised enrichment score” read 1.31.
Under “normalised enrichment score”, `PKAIRKLHFEDVV [E12V]` is recorded as 1.72.
For `PKAFRKLHFEDEV [I4F]`, “normalised enrichment score” read 0.783.
`PKAIRKLEFEDEV [H8E]`: “normalised enrichment score” 1.32.
For `PKAIRKKHFEDEV [L7K]`, “normalised enrichment score” read 0.213.
`PKTIRKLHFEDEV [A3T]`: “normalised enrichment score” 0.513.
`PKAIRKLHFEDDV [E12D]`: “normalised enrichment score” 1.58.
`PKMIRKLHFEDEV [A3M]` — result for “normalised enrichment score”: 0.404.
Under “normalised enrichment score”, `PKAIRKLHFADEV [E10A]` is recorded as 0.978.
Under “normalised enrichment score”, `PKAIRKLHPEDEV [F9P]` is recorded as 0.0559.
`PKAKRKLHFEDEV [I4K]` — result for “normalised enrichment score”: 2.79.
`PKAINKLHFEDEV [R5N]`: “normalised enrichment score” -0.277.
